Measurements from different studies.
Lines come from different studies, so protocols differ.
Target: Delta-type opioid receptor (OPRD1, Homo sapiens, UniProt P41143)

SMILES = O=C(O)c1ccc(-c2nc(-c3ccccc3Cl)c3sccn23)cc1; test = binding; conditions = 10 µM; quantity = inhibition; value = ~82%
SMILES = CCN(CC)CCOc1ccc(-c2nnn(Cc3ccc(OC)cc3)c2N)cc1; test = radioligand binding; system = HEK293; conditions = 10 µM, safety profiling; quantity = inhibition; value = 4.32%
SMILES = CCc1nnc(-c2c(OC)cc(-c3cnc4cc(-c5cnn(C)c5)ccn34)cc2OC)o1; test = agonist, radioligand binding; conditions = 10 µM; scale = baseline: control; quantity = specific binding; value = 93.9%
SMILES = C/C(=N\OCCCN1CCCCC1)c1ccc(C(F)(F)F)cc1; test = antagonist, cAMP; conditions = 10 µM; quantity = inhibition; value = 9.08%
SMILES = Cc1sc2c(c1C)C(c1ccc(Cl)cc1)=NC(CC(=O)OC(C)(C)C)c1nnc(C)n1-2 (centres unmarked); test = ligand displacement, radioligand; conditions = 1 µM; quantity = remaining binding; value = 106%
SMILES = O=C(Cc1ccc(Cl)c(Cl)c1)N1CCN[C@@H]2COC[C@H](N3CCCC3)[C@H]21; test = binding; conditions = up to 20 µM, added: [3H]DPDPE; quantity = inhibition; value = ≤ 50%
SMILES = N[C@H](C(=O)N1CCCC1)C1CCN(c2nccc3c(-c4ncc(Cl)cc4Cl)cccc23)CC1; test = functional response, agonist; conditions = 10 µM; quantity = response; value = -1%
SMILES = Cc1cc(Nc2nc(C[C@@]3(C(=O)O)CCN(Cc4cccc(Cl)c4F)[C@H](C)C3)cc(C)c2F)[nH]n1; test = inhibitor; conditions = 10 µM; quantity = inhibition; value = 10.1%
SMILES = CN1CC[C@]23c4c5ccc(O)c4C[C@H]2[C@@H](O)C=C[C@H]3[C@H]1C5; test = receptor activation, agonist, cell-based; quantity = Emax; value = < 10%
SMILES = CN[C@@H]1[C@H](O)[C@H](NC)[C@H]2O[C@]3(O)[C@H](O[C@@H]2[C@H]1O)O[C@H](C)C[C@H]3NC(=O)Cc1cc(Cl)ccn1; test = ligand displacement, radioligand; conditions = 10 µM; quantity = inhibition; value = 9%
SMILES = Cc1cc(-c2ccc3ccccc3c2)nnc1NCCN1CCN(C)CC1; test = antagonist; conditions = 10000 nM; scale = baseline: control; quantity = activity; value = 0%

Repeated from above:
SMILES = Cc1cc(Nc2nc(C[C@@]3(C(=O)O)CCN(Cc4cccc(Cl)c4F)[C@H](C)C3)cc(C)c2F)[nH]n1; test = inhibitor; conditions = 10 µM; quantity = inhibition; value = 10.1%
